{"data": "Measured values of several laboratories", "note": "Each line is one published result; not all experiments were run side by side. ± gives the spread as reported."}
{"SMILES": "N=C(N)NCc1ccc(C(=O)NCCCC[C@H](NC(=O)N[C@@H](CCC(=O)O)C(=O)O)C(=O)O)cc1[131I]", "test system": "SCID mouse, PC-3 xenografts, kidneys", "conditions": "14 h", "tissue uptake [%ID/g]": "19.1 ± 11.7"}
{"SMILES": "C=Cc1cc(O)cc2nc(-c3ccc(O)c([76Br])c3)oc12", "test system": "female C57BL/6 mouse, muscle", "conditions": "1 h, low dose", "tissue uptake [%ID/g]": "0.23 ± 0.13"}
{"SMILES": "C[C@]12CC[C@H](OCC[18F])C[C@H]1CC[C@@H]1[C@@H]2CC[C@]2(C)[C@@H](c3ccc(=O)oc3)CC[C@]12O", "test": "micro-PET", "test system": "BALB/c nude mice, SMMC-7721 xenograft, liver", "conditions": "intravenous, 7.4 MBq, 60 min", "tissue uptake [%ID/g]": "15.8 ± 2.75"}
{"SMILES": "N=C(N)NCc1ccc(C(=O)NCCCC[C@H](NC(=O)CCCCCCC(=O)NCCCC[C@H](NC(=O)N[C@@H](CCC(=O)O)C(=O)O)C(=O)O)C(=O)O)cc1[211At]", "test system": "SCID mouse, PC-3 xenografts, brain", "conditions": "1 h", "tissue uptake [%ID/g]": "0.08 ± 0.02"}
{"SMILES": "COc1cc2ccnc(Cc3ccc(O[11CH3])c(OC)c3)c2cc1OC", "test system": "Sprague-Dawley rats, muscle", "conditions": "intravenous, 0.08333 h", "tissue uptake [%ID/g]": "0.132 ± 0.009"}
{"SMILES": "COc1cc2ncnc(Oc3cccc(N[11C](=O)Nc4cc(C(C)(C)C(F)(F)F)on4)c3)c2cc1OC", "test system": "Balb/c nude mouse, female, A375 melanoma xenograft, spleen", "conditions": "6.6 MBq, 30 min", "tissue uptake [%ID/g]": "2.2 ± 0.07"}
{"SMILES": "N=C(N)NCc1ccc(C(=O)NCCCC[C@H](NC(=O)N[C@@H](CCC(=O)O)C(=O)O)C(=O)O)cc1[211At]", "test system": "SCID mouse, PC-3 xenografts, heart", "conditions": "1 h", "tissue uptake [%ID/g]": "1.29 ± 0.37"}
{"SMILES": "CN[C@](C)(C[18F])C(=O)O", "test system": "SCID mouse MDA-MB-468 xenograft, spleen", "conditions": "15 min, post injection", "tissue uptake [%ID/g]": "9 ± 2.1"}
{"SMILES": "COc1cc(C(=O)NCCOCCOCCOCCNC(=O)c2ccc([18F])nc2)ccc1NC(=O)C1NC(CC(C)(C)C)C(C#N)(c2ccc(Cl)cc2F)C1c1cccc(Cl)c1F (stereo not shown)", "test system": "athymic male mice, SJSA-1 xenograft, small intestine", "conditions": "1 h", "tissue uptake [%ID/g]": "2.85 ± 0.24"}
{"SMILES": "N=C(N)NCc1ccc(C(=O)NCCCC[C@H](NC(=O)CCCCCCC(=O)NCCCC[C@H](NC(=O)N[C@@H](CCC(=O)O)C(=O)O)C(=O)O)C(=O)O)cc1[131I]", "test system": "SCID mouse, PC-3 xenografts, muscle", "conditions": "1 h", "tissue uptake [%ID/g]": "0.31 ± 0.14"}
{"SMILES": "CCNc1cc2[o+]c3cc(NCC)c(C)cc3c(-c3ccccc3C(=O)OCCOCC[18F])c2cc1C", "test system": "rat, blood", "conditions": "120 min", "tissue uptake [%ID/g]": "0.06 ± 0.01"}
{"SMILES": "O=C(O)CC[C@H](NC(=O)O[C@@H](CCCCNC(=O)c1ccc([18F])cc1)C(=O)O)C(=O)O", "test system": "mouse, PC-3 PIP/flu xenografts, heart", "conditions": "90 min", "tissue uptake [%ID/g]": "0.11 ± 0.02"}
{"SMILES": "CCCC[C@H](NC(=O)CCOCCOCCNC(=O)CN1CCN(CC(=O)O)CCN(CC(=O)O)CCN(CC(=O)O)CC1)C(=O)N[C@H]1CC(=O)NCCCC[C@@H](C(N)=O)NC(=O)[C@H](Cc2c[nH]c3ccccc23)NC(=O)[C@H](CCCNC(=N)N)NC(=O)[C@@H](Cc2ccccc2)NC(=O)[C@H](Cc2c[nH]cn2)NC1=O [gallium-68 labelled]", "test system": "C57BL/6J mice male B16-F10 tumour, liver", "conditions": "1 h post injection, unblocked", "tissue uptake [%ID/g]": "0.6 ± 0.1"}
{"SMILES": "O=C(c1ccc(F)cc1)C1CCN(C2Cc3c(cccc3OCC[18F])CC2O)CC1 (single isomer, unassigned; (-))", "test system": "Sprague-Dawley rat, male, pancreas", "conditions": "intravenous, dose not given, 120 min", "tissue uptake [%ID/g]": "0.819 ± 0.367"}
{"SMILES": "NC(=O)[C@@H](CCCCNC(=O)CNC(=O)CCC(=O)NCCc1c[nH]cn1)NC(=O)[C@@H](Cc1ccc(O)cc1)NC(=O)[C@@H](CCCCNC(=O)CNC(=O)CCC(=O)NCCc1c[nH]cn1)NC(=O)Cc1ccc(CN2CCN(CC(=O)O)CCN(CC(=O)O)CC2)cc1 [fluorine-18 labelled]", "test system": "tumour-bearing nude mice, kidney", "conditions": "intravenous, 1.04 MBq, 3 h, no pretargeting", "tissue uptake [%ID/g]": "2.27 ± 0.29"}
{"SMILES": "N=C(N)NCCC[C@@H]1NC(=O)[C@H](CCCCNC(=O)CC[C@H](NC(=O)CCOCCOCCOCCOCCNC(=O)CC[C@H](NC(=O)CN2CCN(CC(=O)O)CCN(CC(=O)O)CCN(CC(=O)O)CC2)C(=O)NCCOCCOCCOCCOCCC(=O)N[C@@H](CCC(=O)NCCCC[C@@H]2NC(=O)[C@@H](Cc3ccccc3)NC(=O)[C@H](CC(=O)O)NC(=O)CNC(=O)[C@H](CCCNC(=N)N)NC2=O)C(=O)NCCCC[C@@H]2NC(=O)[C@@H](Cc3ccccc3)NC(=O)[C@H](CC(=O)O)NC(=O)CNC(=O)[C@H](CCCNC(=N)N)NC2=O)C(=O)NCCCC[C@@H]2NC(=O)[C@@H](Cc3ccccc3)NC(=O)[C@H](CC(=O)O)NC(=O)CNC(=O)[C@H](CCCNC(=N)N)NC2=O)NC(=O)[C@@H](Cc2ccccc2)NC(=O)[C@H](CC(=O)O)NC(=O)CNC1=O [indium-111 labelled]", "test system": "female athymic nude mice, muscle", "conditions": "intravenous, 3 µCi, 1 h, U-87 MG glioma xenograft", "tissue uptake [%ID/g]": "0.91 ± 0.37"}
{"note": "Repeated from above:"}
{"SMILES": "NC(=O)[C@@H](CCCCNC(=O)CNC(=O)CCC(=O)NCCc1c[nH]cn1)NC(=O)[C@@H](Cc1ccc(O)cc1)NC(=O)[C@@H](CCCCNC(=O)CNC(=O)CCC(=O)NCCc1c[nH]cn1)NC(=O)Cc1ccc(CN2CCN(CC(=O)O)CCN(CC(=O)O)CC2)cc1 [fluorine-18 labelled]", "test system": "tumour-bearing nude mice, kidney", "conditions": "intravenous, 1.04 MBq, 3 h, no pretargeting", "tissue uptake [%ID/g]": "2.27 ± 0.29"}
{"SMILES": "N=C(N)NCCC[C@@H]1NC(=O)[C@H](CCCCNC(=O)CC[C@H](NC(=O)CCOCCOCCOCCOCCNC(=O)CC[C@H](NC(=O)CN2CCN(CC(=O)O)CCN(CC(=O)O)CCN(CC(=O)O)CC2)C(=O)NCCOCCOCCOCCOCCC(=O)N[C@@H](CCC(=O)NCCCC[C@@H]2NC(=O)[C@@H](Cc3ccccc3)NC(=O)[C@H](CC(=O)O)NC(=O)CNC(=O)[C@H](CCCNC(=N)N)NC2=O)C(=O)NCCCC[C@@H]2NC(=O)[C@@H](Cc3ccccc3)NC(=O)[C@H](CC(=O)O)NC(=O)CNC(=O)[C@H](CCCNC(=N)N)NC2=O)C(=O)NCCCC[C@@H]2NC(=O)[C@@H](Cc3ccccc3)NC(=O)[C@H](CC(=O)O)NC(=O)CNC(=O)[C@H](CCCNC(=N)N)NC2=O)NC(=O)[C@@H](Cc2ccccc2)NC(=O)[C@H](CC(=O)O)NC(=O)CNC1=O [indium-111 labelled]", "test system": "female athymic nude mice, muscle", "conditions": "intravenous, 3 µCi, 1 h, U-87 MG glioma xenograft", "tissue uptake [%ID/g]": "0.91 ± 0.37"}
